Measurements collected from several papers.
Compare with care: the assays were run in different laboratories. Numbers after ± are the reported error. Values after ≈ are worked out from the molar mass of the structure shown.
Organism: Candida tropicalis

Compound = CC(C)C[C@H](NC(=O)[C@H](CC(C)C)NC(=O)[C@H](CCCCN)NC(=O)CNC(=O)[C@H](CC(C)C)NC(=O)CNC(=O)[C@H](CO)NC(=O)[C@H](CC(C)C)NC(=O)[C@H](CC(C)C)NC(=O)[C@H](CO)NC(=O)[C@H](CCCCN)NC(=O)[C@H](CC(C)C)NC(=O)[C@H](CCCCN)NC(=O)[C@H](CCCCN)NC(=O)[C@H](C)NC(=O)[C@H](C)NC(=O)[C@H](C)NC(=O)CNC(=O)[C@H](CO)NC(=O)[C@H](Cc1c[nH]c2ccccc12)NC(=O)[C@@H](N)CCCCN)C(=O)O; assay = broth microdilution; test system = ATCC 13803; conditions = 44 h, 37 °C; measurement = MIC; value = 1 µM
Compound = O=c1n(CCNCCOS(=O)(=O)c2ccccc2)c(=O)n(S(=O)(=O)c2ccccc2)c(=O)n1S(=O)(=O)c1ccccc1; assay = microbial growth, broth dilution; measurement = MIC; value = 32 µg/mL
Compound = C=C1NC(=O)C2C[S+]([O-])CC3NC(=O)C(CSC(C)C(NC(=S)C(Cc4cnc[nH]4)NC(=O)c4csc(C(C)NC(C)=O)n4)C(=O)N[C@H](CC(C)C(=O)NC(=O)CC(C(=O)O)NC(=O)C(C)NC3=O)C(=O)N2)NC(=O)[C@@H]2CCCN2C(=O)[C@@H](CC(C)C)NC1=O (some centres unmarked); assay = EUCAST broth microdilution; test system = clinical isolate, RPMI 1640 with MOPS; conditions = pH 7.0, 37 °C, 2% glucose; measurement = MIC; value = > 32 µg/mL
Compound = O=CCNCCOn1c(=O)n(OCCNCCO)c(=O)n(OCCNCCOn2c(=O)n(OCCNCCO)c(=O)n(OCCNCCO)c2=O)c1=O; assay = broth microdilution; measurement = MLC; value = 64 ± 6 µg/mL (≈ 83.1 µM)
Compound = CCCCCCCCCCCC(=O)NCCCC[C@H](NC(=O)CCCCCCCCCCC)C(=O)N[C@@H](CCCCNC(=O)CCCCCCCCCCC)C(=O)NCC(=O)NCC(=O)NCC(=O)N[C@@H](CS)C(=O)N[C@@H](CCCNC(=N)N)C(=O)N[C@@H](CCCCN)C(=O)N1CCC[C@H]1C(=O)N[C@@H](CS)C(=O)N[C@@H](CCCNC(=N)N)C(=O)N[C@@H](CCCCN)C(=O)N1CCC[C@H]1C(N)=O; assay = broth microdilution; test system = CGMCC 2.197, RPMI-1640; conditions = 48 h, 30 °C; measurement = MIC; value = > 128 µM
Compound = CC(C)C[C@H](NC(=O)[C@H](CC(C)C)NC(=O)[C@H](CCCCN)NC(=O)CNC(=O)[C@H](CC(C)C)NC(=O)CNC(=O)[C@H](CO)NC(=O)[C@H](CC(C)C)NC(=O)[C@H](CC(C)C)NC(=O)[C@H](CO)NC(=O)[C@H](CCCCN)NC(=O)[C@H](CC(C)C)NC(=O)[C@H](CCCCN)NC(=O)[C@H](CCCCN)NC(=O)[C@H](CC(C)C)NC(=O)[C@H](CC(C)C)NC(=O)[C@H](CC(C)C)NC(=O)CNC(=O)[C@H](CO)NC(=O)[C@H](Cc1c[nH]c2ccccc12)NC(=O)[C@@H](N)CCCCN)C(=O)O; assay = broth microdilution; test system = ATCC 13803; conditions = 44 h, 37 °C; measurement = MIC; value = 8 µM
Compound = CCCCCCCC(=O)NCCCC[C@H](NC(=O)CCCCCCC)C(=O)N[C@@H](CCCCNC(=O)CCCCCCC)C(=O)NCC(=O)NCC(=O)NCC(=O)N[C@@H](CS)C(=O)N[C@@H](CCCNC(=N)N)C(=O)N[C@@H](CCCCN)C(=O)N1CCC[C@H]1C(=O)N[C@@H](CS)C(=O)N[C@@H](CCCNC(=N)N)C(=O)N[C@@H](CCCCN)C(=O)N1CCC[C@H]1C(=O)N[C@@H](CS)C(=O)N[C@@H](CCCNC(=N)N)C(=O)N[C@@H](CCCCN)C(=O)N1CCC[C@H]1C(=O)N[C@@H](CS)C(=O)N[C@@H](CCCNC(=N)N)C(=O)N[C@@H](CCCCN)C(=O)N1CCC[C@H]1C(N)=O; assay = broth microdilution; test system = CGMCC 2.197, RPMI-1640; conditions = 48 h, 30 °C; measurement = MIC; value = 8 µM
Compound = C=C1NC(=O)C2CSCC3NC(=O)C(CSC(C)C(NC(=S)C(Cc4cnc[nH]4)NC(=O)c4csc(C(C)NC(C)=O)n4)C(=O)N[C@H](CC(C)C(=O)NC(=O)CC(C(=O)O)NC(=O)C(C)NC3=O)C(=O)N2)NC(=O)[C@@H]2CCCN2C(=O)[C@@H](CC(C)C)NC1=O (some centres unmarked); assay = EUCAST broth microdilution; test system = clinical isolate, RPMI 1640 with MOPS; conditions = pH 7.0, 37 °C, 2% glucose; measurement = MIC; value = > 32 µg/mL

Some of these lines once more:
Compound = C=C1NC(=O)C2CSCC3NC(=O)C(CSC(C)C(NC(=S)C(Cc4cnc[nH]4)NC(=O)c4csc(C(C)NC(C)=O)n4)C(=O)N[C@H](CC(C)C(=O)NC(=O)CC(C(=O)O)NC(=O)C(C)NC3=O)C(=O)N2)NC(=O)[C@@H]2CCCN2C(=O)[C@@H](CC(C)C)NC1=O (some centres unmarked); assay = EUCAST broth microdilution; test system = clinical isolate, RPMI 1640 with MOPS; conditions = pH 7.0, 37 °C, 2% glucose; measurement = MIC; value = > 32 µg/mL
